Experimental data gathered from unrelated publications.
“And” joins repeats or separate records; there may be more than shown. ± gives the spread as reported.
Chain of UniProt Q13554 (whole entry, looked up): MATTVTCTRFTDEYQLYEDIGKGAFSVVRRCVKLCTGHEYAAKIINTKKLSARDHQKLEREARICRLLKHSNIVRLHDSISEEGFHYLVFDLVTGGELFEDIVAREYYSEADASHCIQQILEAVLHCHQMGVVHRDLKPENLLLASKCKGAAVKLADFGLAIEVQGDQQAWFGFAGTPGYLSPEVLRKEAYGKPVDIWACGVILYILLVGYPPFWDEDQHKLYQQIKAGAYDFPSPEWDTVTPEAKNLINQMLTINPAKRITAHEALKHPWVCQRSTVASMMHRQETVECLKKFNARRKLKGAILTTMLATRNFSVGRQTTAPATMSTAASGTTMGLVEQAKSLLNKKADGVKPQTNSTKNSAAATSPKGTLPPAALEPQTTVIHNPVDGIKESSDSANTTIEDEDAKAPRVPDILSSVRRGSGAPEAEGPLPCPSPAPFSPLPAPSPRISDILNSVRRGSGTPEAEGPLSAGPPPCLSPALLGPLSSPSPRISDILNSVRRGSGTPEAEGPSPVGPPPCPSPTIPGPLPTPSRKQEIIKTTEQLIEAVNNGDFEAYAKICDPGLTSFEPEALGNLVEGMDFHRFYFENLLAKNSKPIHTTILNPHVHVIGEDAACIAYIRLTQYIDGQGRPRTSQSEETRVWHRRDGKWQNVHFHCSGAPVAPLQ

CN(C(=O)C(C)(C)c1cc(C(F)(F)F)cc(C(F)(F)F)c1)c1cnc(N2C[C@H]3COC(O)CN3C[C@H]2CO)cc1-c1ccc(F)cc1CO (stereo partly drawn)
Km (pooled human liver microsomes; pH 7.4, substrate depletion): 1.19 µM

CN1CCCNC(=O)c2cccc(c2)C(=O)NCCCN(C)CCCNc2cccc3c2C(=O)c2cccc(c2C3=O)NCCC1
log2 fold change (SAS; RNA-Seq, measured: HNRNPD mRNA; 1 µM, 6 h; baseline: untreated cells): 0.282

O=C(Nc1cnccc1-c1ccc([18F])nc1)c1ccnc(NC(=O)C2CC2)c1
SUV (ex vivo gamma counting; GSK-3β transgenic mice, early-stage, cortex; intravenous, 120 min, mean, no P-gp inhibitor): 0.017

Cc1nn(-c2cccc(N)c2)c(=O)c2cnc(Nc3ccc(N4CCNCC4)cc3)nc12
IC50 (Calcium/calmodulin-dependent protein kinase type II subunit beta (CAMK2B, Homo sapiens, UniProt Q13554); SelectScreen kinase): > 10 µM

CCCCN1C(=O)c2cccc3c(NCCCCCCCCCCN4CCOCC4)ccc(c23)C1=O
fluorescence quantum yield (water; pH 6.0): 0.08

CC[C@H](C)[C@@H](C(=O)N[C@@H](CC(C)C)C(=O)N[C@@H](CO)C(=O)N[C@@H](CO)C(=O)N[C@H](C(=O)N[C@@H](CCC(=O)O)C(=O)N[C@H](C(=O)NCC(=O)N[C@@H](CO)C(=O)N[C@@H](CC(N)=O)C(=O)N[C@H](C(=O)N1C[C@H](O)C[C@H]1C(N)=O)[C@@H](C)O)C(C)C)[C@@H](C)O)N(C)C(=O)[C@H](C)NC(=O)CN(C)C(=O)[C@H](Cc1ccccc1)NC(=O)[C@H](CO)NC(=O)[C@H](CO)NC(=O)[C@H](CCCNC(=N)N)NC(=O)[C@H](CCC(N)=O)NC(=O)[C@H](CC(C)C)NC(=O)[C@H](Cc1ccccc1)NC(=O)[C@H](Cc1c[nH]cn1)NC(=O)[C@H](C)NC(=O)[C@H](CC(C)C)NC(=O)[C@H](CCCNC(=N)N)NC(=O)[C@H](CCC(=O)O)NC(=O)[C@@H](NC(=O)[C@H](C)NC(=O)[C@@H]1CSSC[C@H](NC(=O)[C@H](CCCNC(=N)N)NC(=O)CC[C@H](NC(=O)CCCCCCCCCCCCCCCCCCC(=O)O)C(=O)O)C(=O)NCC(=O)N[C@@H]([C@@H](C)O)C(=O)N[C@@H](C)C(=O)N[C@@H]([C@@H](C)O)C(=O)N1)[C@@H](C)O
main peak area remaining (RP-HPLC; water; 1.0 mg/mL, 7 days, pH 6.0, 40 °C): 93%

Cc1nn(-c2nc3c(F)cc(F)cc3s2)c(O)c1C(c1ccc(C(F)(F)F)cc1)c1c(C)nn(-c2nc3c(F)cc(F)cc3s2)c1O
AUMC extrapolated observed (ICR mouse, plasma; intraperitoneal, 10 mg/kg): 43.7% and 17.2% and 33.5%

Nc1ncc(-c2cc(-c3cnn(CC(F)(F)F)c3)ncc2F)nc1C(=O)NC1CNCC(F)C1 (stereo not drawn)
remaining binding (RIPK2; KINOMEscan; 1 µM; baseline: DMSO control): 86%

CN(Cc1ccccc1)C(=O)CN1CCN(CC(=O)N(C)Cc2ccccc2)CCN(Cc2cccc(C(=O)[O-])n2)CC1.[44Sc+3]
tracer uptake (mouse, liver; intravenous, 1 h): 6.24 %ID/g

Cc1nc(N)nc2c1C(=O)N[C@@H](c1ccc(F)cc1-c1cccc(O[11CH3])n1)C2
tracer uptake (ex vivo biodistribution; mice, U87 subcutaneous xenograft, intestines; 60 min post-injection, baseline, vehicle pre-treatment): 19.3 ± 1.3 %ID

CN(Cc1ccccc1)C(=O)CN1CCN(CC(=O)[O-])CCN(Cc2cccc(C(=O)[O-])n2)CC1.[177Lu+3]
tracer uptake (mouse, stomach; intravenous, 1 h): 0.73 %ID/g

C=CC(=O)Nc1cccc(Cn2ncc3cnc(Nc4cnn(CCOC)c4)nc32)c1
percent of control (PDPK1 human; binding, KINOMEscan; 100 nM; lower = stronger binding): 75%

CCC(CC)CNC(=N)NC(=N)NCCCCCCNC(=N)NC(=N)NCC(CC)CC
scaled CLint (metabolic stability; rat, liver microsomes; 2 µM): 67.8 mL/min/kg

C/C(N)=N/C(=N\S(=O)(=O)c1ccc(C(F)(F)F)cc1)N1C[C@H](c2ccccc2)C(c2ccc(Cl)cc2)=N1
oral bioavailability (cynomolgus monkey female, plasma; oral, 6 mg/kg): 41%

CC[C@H](C)[C@@H]1NC(=O)[C@H](Cc2ccc(O)cc2)NC(=O)CCCSC[C@@H](C(=O)N(CC(=O)N[C@@H](CC(C)C)C(=O)NCC(N)=O)Cc2ccc(F)cc2)NC(=O)[C@H](CC(N)=O)NC(=O)[C@H](CCC(N)=O)NC1=O
Cmax (healthy human, plasma; intranasal, 400 µg every 3 h, after last dose): 0.211 ng/mL

CC(C)c1cnc(-c2cc(Cl)ccc2F)cc1Nc1ccncc1C(=O)NC(CO)CO
unbound Cmax (female C57BL/6 mice, plasma; oral, 30 mg/kg twice daily, day 7, MC-38 tumour-bearing): 85.2 nM

Cc1noc(C)c1Cn1cc(N2C(=O)CN(Cc3cccc(OS(=O)(=O)O)c3)C2=O)cn1
plasma concentration (Sprague-Dawley rat, male; oral, 100 mg/kg of parent drug, 12 h): 2570 ng/mL

OC1(C(F)(F)F)CCN(c2nc(Nc3ccnc(C(F)(F)F)c3)nc(-c3cccc(C(F)(F)F)n3)n2)C1 (stereo not drawn)
AUC(0-t) (Sprague-Dawley rat, both sexes, plasma; oral gavage, 5 mg/kg, day 1): 6100 ± 654 ng·h/mL

OC(Cc1cc(-c2ccc(C(O)C(F)(F)F)s2)sc1-c1ccc(-c2sc(-c3ccc(C(O)C(F)(F)F)s3)cc2CC(O)C(F)(F)F)s1)C(F)(F)F (stereo not drawn)
amount in extracellular wash (primary human fetal neurons; LC-MS/MS; 4 µM, 60 min, replicate 3): 0.02 nmol and 0.01 nmol

O=C([O-])CN1CCN(CC(=O)[O-])CCN(CC(=O)[O-])CC1.[44Sc+3]
tracer uptake (mouse, stomach; intravenous, 1 h): 0.8 %ID/g

CC(C)OCCOCc1ccc(OCC(O)CN(N=O)C(C)C)cc1 (stereo not drawn)
revertant fold increase (Salmonella typhimurium; Ames test; TA1535; 15.8 µg/plate, without metabolic activation; baseline: solvent control): 0.8 fold

CCN(CC)CC#CCNc1ccnc2cc(Cl)ccc12
revertants per well (Salmonella typhimurium; mini-Ames test; TA97a; 1000.0 µg/well, with rat liver S9): 11

COC1CN([C@H]2CC[C@H]([C@@]3(C)Oc4c(Cl)cc(C(=O)NCc5c(SC)cc(C)[nH]c5=O)c(C)c4O3)CC2)C1
log2 fold change (RNA-seq, measured: SPATA7 mouse homolog; mouse, HT-1376 xenograft, whole blood; dose not given; baseline: vehicle): 0.803

CC(C(=O)O)n1nc(Cn2cc3cc(OCC[18F])c(Cl)cc3n2)c2ccccc2c1=O (racemic)
tracer uptake (rat, kidney; 1 h): 0.38 %ID/g

Cc1ncsc1-c1ccc(C(C)NC(=O)C2CC(O)CN2C(=O)C(NC(=O)CCCCCCCCCCN2CCCC(Nc3ncc(Cl)c(Nc4ccccc4S(=O)(=O)C(C)C)n3)C2)C(C)(C)C)cc1 (stereo not drawn)
log2 fold change (22Rv1; RNA-seq, measured: ZNF239 mRNA; concentration not given; baseline: DMSO): -1.58

O=C([O-])CN1CCN(CC(=O)[O-])CCN(Cc2cccc(C(=O)[O-])n2)CC1.[177Lu+3]
uptake (BALB/c mouse, urine; intravenous, 1 h): 837 ± 218 %ID/g

C=C(NC(=O)c1csc(-c2nc3c(cc2O)-c2nc(cs2)C(=O)NC(C(C)O)C(=O)NC(=C(C)OC)c2nc(cs2)C(=O)NC2c4nc(cs4)C(=O)NC(COC(=O)c4c5c6c(cccc6n4O)COC(=O)C(OC4CC(C)(O)C(N(C)C)C(C)O4)C2OC5)c2nc-3cs2)n1)C(N)=O (stereo not drawn)
MRT(0-t) (ICR mice, Streptococcus pneumoniae ATCC 49169 infected, immunocompromised, blood; intravenous, 4 mg/kg/day once daily): 1.13 h

A few entries again:
C/C(N)=N/C(=N\S(=O)(=O)c1ccc(C(F)(F)F)cc1)N1C[C@H](c2ccccc2)C(c2ccc(Cl)cc2)=N1
oral bioavailability (cynomolgus monkey female, plasma; oral, 6 mg/kg): 41%

CC[C@H](C)[C@@H]1NC(=O)[C@H](Cc2ccc(O)cc2)NC(=O)CCCSC[C@@H](C(=O)N(CC(=O)N[C@@H](CC(C)C)C(=O)NCC(N)=O)Cc2ccc(F)cc2)NC(=O)[C@H](CC(N)=O)NC(=O)[C@H](CCC(N)=O)NC1=O
Cmax (healthy human, plasma; intranasal, 400 µg every 3 h, after last dose): 0.211 ng/mL

CC(C)c1cnc(-c2cc(Cl)ccc2F)cc1Nc1ccncc1C(=O)NC(CO)CO
unbound Cmax (female C57BL/6 mice, plasma; oral, 30 mg/kg twice daily, day 7, MC-38 tumour-bearing): 85.2 nM
